Results collected from several papers.
Numbered parts are unrelated; each lists some results of a single study.

Study 1
Target: Interferon regulatory factor 5, full length, phosphomimetic (IRF5, Homo sapiens, UniProt Q13568-2, residues 1-514, S451D/S453D/S456D/S462D)
Method: protein-binding microarray
Form: double-stranded DNA, one strand shown
Sample: in vitro
Concentration: 940 nM top
Notes: 60-bp whole probe
Together with: salmon DNA 0.4 mg/ml
Relative to: random background probes
Direction: higher = stronger binding
Quantity: fitted relative affinity
All sequences stand within: GCCTAGCAC … GTCTTGATTCGCTTGACGCTGCTG
CCTCTGCTCCTCTTTTTTTGGGTGCTA: 1.08 z-score
GCTATTTTTAGGATGGGCTAGTGCTAG: -0.0844 z-score
GACGATCTCAGTATCGTGACGTGCTAG: 0.743 z-score
GACGGTATCGACGATCGGGACGTGCTA: 3.88 z-score
TCATTTTAAGTTCTCTGACTGTGCTAG: 0.343 z-score
GCATTTTTCTAATTTACTTTGTGCTAG: 1.32 z-score
CTGGCTTTGACTCTTTCTGTGTGCTAG: 0.086 z-score
GCCGGTATCGGTCTCGGGACGTGCTAG: 9.99 z-score

Study 2
Target: Sal-like protein 4, full length isoform B (SALL4, Homo sapiens, UniProt Q9UJQ4-2, residues 1-616)
Method: universal PBM
Form: double-stranded DNA, one strand shown
Sample: in vitro
Concentration: not given
Notes: 8-mer, flanks averaged, mean of replicates
Direction: higher = stronger binding
Quantity: E-score
Target sequence (chain): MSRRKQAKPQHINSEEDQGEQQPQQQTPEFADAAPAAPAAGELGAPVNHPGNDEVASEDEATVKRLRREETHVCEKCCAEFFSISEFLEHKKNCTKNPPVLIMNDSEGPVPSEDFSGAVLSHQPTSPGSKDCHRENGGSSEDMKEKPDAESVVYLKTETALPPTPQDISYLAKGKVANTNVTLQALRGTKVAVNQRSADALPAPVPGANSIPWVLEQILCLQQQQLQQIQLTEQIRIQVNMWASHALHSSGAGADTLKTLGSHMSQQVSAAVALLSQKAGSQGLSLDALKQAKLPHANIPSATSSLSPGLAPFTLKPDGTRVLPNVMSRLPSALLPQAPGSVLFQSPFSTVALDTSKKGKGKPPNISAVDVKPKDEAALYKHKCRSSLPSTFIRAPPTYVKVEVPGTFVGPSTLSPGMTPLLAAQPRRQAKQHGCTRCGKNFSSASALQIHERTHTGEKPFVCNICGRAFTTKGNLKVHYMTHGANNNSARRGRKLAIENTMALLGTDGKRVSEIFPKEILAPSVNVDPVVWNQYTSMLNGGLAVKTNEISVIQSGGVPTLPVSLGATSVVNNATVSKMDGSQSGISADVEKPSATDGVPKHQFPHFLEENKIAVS
CGTTACGC: 0.0817
AGACTGGG: -0.182
AGAAGTGG: 0.0196
AACCTAGT: -0.0318
TTACTAAA: 0.271
ACTCTATA: 0.212
CCGCTCTA: -0.0201
CAACGTGC: -0.148

Study 3
Target: Replicase polyprotein 1ab, polymerase (rep, Severe acute respiratory syndrome coronavirus 2, UniProt P0DTD1)
Observed: enzyme activity
Mode: inhibitor
Concentration: 20 µM
Quantity: inhibition
O=C(O)CCCc1c[nH]c2ccccc12: -6.37%
COc1cc([S+](C)[O-])ccc1-c1nc2cccnc2[nH]1 (stereo not drawn): 0.85%
CN(c1ccccc1CNc1nc(Nc2ccc3c(c2)CC(=O)N3)ncc1C(F)(F)F)S(C)(=O)=O: -12.4%
CN1CCc2cc(Cl)c(O)cc2[C@@H](c2ccccc2)C1: 1.13%
NC(=O)N1CCC(CC(=O)N2CCC([C@H]3c4ncc(Br)cc4CCc4cc(Cl)cc(Br)c43)CC2)CC1: 1.18%
O=CN1CCC(C(=O)NCCN2CCC(=C3c4ccccc4C=Cc4ccccc43)CC2)CC1: -2.77%
Oc1ccc(-c2nc3cc(O)cc(Br)c3o2)cc1: 1.49%
Clc1cccc2c1CN(C1=NCCN1)C2: 1.92%
N#C/C(=C\c1ccc(O)c(O)c1)C(=O)NCCCCc1ccccc1: 111%
O=C(O)c1ccccc1-c1ccc(C(F)(F)F)cc1: 3.33%
CCC(=O)N1CCN(c2ccc(-n3c(=O)ccc4cnc5ccc(-c6cnc7ccccc7c6)cc5c43)cc2C(F)(F)F)CC1: 1.81%
Cc1[nH]nc2ccc(-c3cncc(OC[C@@H](N)Cc4ccccc4)c3)cc12: 8.76%
O=C1c2c(O)ccc(O)c2C(=O)c2c(NCCNCCO)ccc(NCCNCCO)c21: 104%
Cc1ccccc1/N=N/c1ccc(/N=N/c2c(O)ccc3ccccc23)c(C)c1: 2.59%
Cc1cc(C(=O)Nc2nc3cccc(Cl)c3n2[C@@H]2CCCCN(C(=O)/C=C/CN(C)C)C2)ccn1: 8.92%
COCCCC/C(=N\OCCN)c1ccc(C(F)(F)F)cc1: -0.67%
Fc1cc(-c2cccc3ncc(-c4cnn(C5CCNCC5)c4)nc23)cc(F)c1CN1CCOCC1: 12.1%
Fc1cc(F)c2c(c1)[C@H]1C=CC[C@H]1C(c1cccnc1)N2 (mixture of isomers): -1.64%
CCCN1C[C@H](CSC)C[C@@H]2c3cccc4[nH]cc(c34)C[C@H]21: -1.69%
c1ccc2nc(N3CCNCC3)ccc2c1: 2.31%
C[C@H](Nc1ncnc2nc[nH]c12)c1cc2cccc(Cl)c2c(=O)n1-c1ccccc1: 4.68%
COc1cnc(-n2cnc(C)n2)c2[nH]cc(C(=O)C(=O)N3CCN(C(=O)c4ccccc4)CC3)c12: 1.46%
NS(=O)(=O)Cc1noc2ccccc12: 0.99%
COc1ccc(OC)c([C@@H](O)[C@H](C)N)c1: 32%
C[C@@H]1O[C@@H]1P(=O)(O)O: 9.31%

Study 4
Target: Replicase polyprotein 1ab, main protease (rep, Severe acute respiratory syndrome coronavirus 2, UniProt P0DTD1)
Observed: enzyme activity
Mode: inhibitor
Concentration: 20 µM
Notes: hit confirmation
Quantity: inhibition
O=C(O)C=C1NN(Cc2nc3cc(C(F)(F)F)ccc3s2)C(=O)c2ccccc21: 12.5%
CCOC(=O)c1c(N)sc(-c2ccccc2)c1C: 100%
Oc1ccc2ccccc2c1SSc1c(O)ccc2ccccc12: 98.5%

Study 5
Target: RNA binding protein fox-1 homolog 2, RRM domain, GST-SBP tag (RBFOX2, Homo sapiens, UniProt O43251-10, residues 100-194)
Method: RNA Bind-n-Seq
Form: RNA
Sample: in vitro
Concentration: 365 nM
Notes: natural RNA segment, single round, ends assumed
Relative to: no-protein control
Direction: higher = stronger binding
Quantity: RBNS enrichment (R)
All sequences stand within: GGGAGUUCUACAGUCCGACGAUC … UGGAAUUCUCGGGUGCCAA
Residues (chain): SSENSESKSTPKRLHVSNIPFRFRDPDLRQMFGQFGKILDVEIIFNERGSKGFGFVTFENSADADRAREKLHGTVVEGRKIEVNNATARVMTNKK
GCUUAAAACCAGCCCAGGCAACAUGGCAAAACCCCGUCUCUACAAAAAAAUACAAAAACUAGCUGGGUGUGGUGGCGCAUGCCUGUAGUCCCAGCUGAGGCACGAUAAUU: 2.59
CUAUCUUGGUUGUAUUUGCUGCCAUCUGUCUUAUUCCCACAUUUCCCUACAGCCCAUAGUAGUGUCAGCGUGGACUGUAGGGCCCCAUUGGGUAUUAGGAUUUAGGCUCC: 0.43
CAUCCUGUGAGUUUGAGCUUCAGGAAACAUGAGUAAAAGUAUAUGUAAUGUAUAUAGUCGUAUAUGUAUUCUAGCAAGAAAAACAUAUUUAUUUUGACAAAGGGGAACAC: 0.47
AGCAUCAAAGCUUUCUCCUGACAUCUCUUUCCAAGAGUCGGGGUGGCAUCUGUACCCCACCUCACCCCCGAGAAGUGCUAUUGCUUGCCCUCUGCCUCAGCCCCACUAGG: 1.03
AAUUAAAAAAACAAAAAUAAAGUCUAAUAAGAACUUUGGUACAGGAACUUUUUUGUAAUAUACAUGUAUGAAUUGUUCAUCGAGUUUUUAUAUUAAUUUUAAUUUGCUGC: 0.972
GGUCAGCAUUACAUUUGAGAGAAUACUAGACAUGACUACACUUAUUAGGGCUAGUGACUUUCUCAAACUCAGAAGCUAAAAAGCAGCCUAGAUGACUAUGCACACACUGG: 0.391
ACAAAGGUCUUCUUCCCUCGCCCCUUCUCCAUCGUCCCAGGAAUCCCAGGGGGCAGCACAGCCGGCCCCCGGCCCACGUUUUCGGUGGAAAAUUAGAGUGAACAAGAACA: 0.294
UGCACUCCCAAACCCCAGCGCAGUGUCCUUUCCCUGCUGCCGACAGGAACCUGGGGCUGAACAGGUUAUCCCUGUCAGGAGCCCUGGACUGGGCUGCAUCUCAGCCCCAC: 0.234

Further values, each from its own experiment
Cell line: HEK-293T/ACE2
Concentration: concentration not given
Time: 16 (unit not given)
Relative to: vehicle
COc1ccc(Cl)cc1C(=O)NCCc1ccc(S(=O)(=O)NC(=O)NC2CCCCC2)cc1 — viability: 99.1%
CCCCC(CC)COC(=O)C(C#N)=C(c1ccccc1)c1ccccc1 (stereo not drawn) — viability: 96.1%

A few entries again (study 3):
COCCCC/C(=N\OCCN)c1ccc(C(F)(F)F)cc1: -0.67%
CCCN1C[C@H](CSC)C[C@@H]2c3cccc4[nH]cc(c34)C[C@H]21: -1.69%
CCC(=O)N1CCN(c2ccc(-n3c(=O)ccc4cnc5ccc(-c6cnc7ccccc7c6)cc5c43)cc2C(F)(F)F)CC1: 1.81%
NS(=O)(=O)Cc1noc2ccccc12: 0.99%
Oc1ccc(-c2nc3cc(O)cc(Br)c3o2)cc1: 1.49%
Cc1cc(C(=O)Nc2nc3cccc(Cl)c3n2[C@@H]2CCCCN(C(=O)/C=C/CN(C)C)C2)ccn1: 8.92%
